Measurements gathered from unrelated publications.
Lines come from different studies, so protocols differ. Several values in a cell are separate wells, animals, samples, runs or records.
Read-out: cell growth or viability

COc1cccc(NC(=O)Nc2ccc(Oc3nc4ccccc4n4cnnc34)cc2)c1 — viability (WI-38; MTT; 100 µM, 24 h): 46%
COC1/C=C/OC2(C)Oc3c(C)c(O)c4c(O)c(c5c(nc6cc(C)ccn65)c4c3C2=O)NC(=O)/C(C)=C\C=C\C(C)C(O)C(C)C(O)C(C)C(OC(C)=O)C1C (stereo not drawn) — IC50 (K562): 70.4 µM
Cc1ccc(N(C)c2ccc(NC(=O)CN(C)c3ccccc3N3CCCC3=O)cn2)cc1 — CC50 (HepG2; ATP luminescence; 48 h): > 40 µM
O=C(C[n+]1cc(-c2ccc(Cl)cc2)n2c1CCC2)Nc1ccc(Cl)c(Cl)c1 — IC50 (K562): 11.9 µM
Cc1ccc(Oc2ccc(NC(=O)COc3ccccc3N3CCCC3=O)cc2)cc1 — CC50 (HepG2; ATP luminescence; 48 h): > 40 µM
COc1cc(N2CCC(N3CCN(C)CC3)CC2)ccc1Nc1ncc(Cl)c(Nc2ccccc2P(C)(C)=O)n1 — viability (Ba/F3 EML4-ALK; CCK-8; 1 µM, 6 h): 47% and 51%
CCOC(=O)/C(C#N)=C(\O)c1ccc(NC(=O)c2cccs2)cc1 — IC50 (K562): 35.9 µM
Cc1ccc(Oc2ccc(NC(=O)CNc3ccccc3N3CCOC3=O)cc2)cc1 — CC50 (HepG2; ATP luminescence; 48 h): 8.6 µM
O=[N+]([O-])c1cnc2ccc(F)cc2c1O — IC50 (K562): 113 µM
O=C(CNc1ccccc1N1CCCC1=O)Nc1ccc(Oc2ccc(F)cc2)cc1 — CC50 (HepG2; ATP luminescence; 48 h): 5.3 µM
O=C(O)c1ccccc1O — IC50 (K562): > 200 µM
CCOC(=O)C(C(C)=O)=C1Sc2nc3ccc(S(=O)(=O)N4CCCC4)cc3nc2S1 — viability (WI-38; MTT; 100 µM, 24 h): 36.1%
Cc1ccc(N(C)c2ccc(NC(=O)CN(C)c3ccc(F)cc3N3CCCC3=O)cc2)cc1 — CC50 (HepG2; ATP luminescence; 48 h): > 40 µM
O=c1oc2cccnc2c(=O)n1Cc1ccc([N+](=O)[O-])o1 — IC50 (K562): 189 µM
CN(CC(=O)Nc1ccc(N(C)c2ccc(Cl)cc2)cc1)c1ccccc1N1CCCC1=O — CC50 (HepG2; ATP luminescence; 48 h): > 40 µM
Nc1ccn([C@@H]2O[C@H](CO)[C@@H](O)C2(F)F)c(=O)n1 — viability (HEK293; MTT; 1.25 µg/mL, 48 h): 59%
CNC(=O)c1cc(Oc2ccc(NC(=O)Nc3ccc(Cl)c(C(F)(F)F)c3)cc2)ccn1 — viability (WI-38; MTT; 6.25 µM, 24 h): 63.7%
CS(=O)(=O)c1cccc(-c2nnc(NC(=O)c3ccc(-c4ccccc4)cc3)o2)c1 — IC50 (K562): 35.2 µM
CC(C)N(c1ccc(Cl)c(F)c1)c1ccc(NC(=O)CN(C)c2ccccc2N2CCCC2=O)cn1 — CC50 (HepG2; ATP luminescence; 48 h): > 40 µM
COc1ccc(S(=O)(=O)ON=C2C=C(C)C(=O)C(C)=C2)cc1 — CC50 (DLD-1): 8.35 µM
O[C@@H](CNCCCC(F)(F)F)c1cc(Cl)cc2c1-c1ccc(Cl)cc1C2 — CC50 (HepG2; MTT; 72 h): 6.9 µM
CC(=O)c1nn(-c2ccc(C)cc2)/c(=N/N=C(\C)c2ccc(NC(=O)c3ccccc3)cc2)s1 — viability (WI-38; MTS; 0.156 µM, 24 h): 52.8%
CC1(C(=O)O)CCC(C(=O)Nc2ccc(Nc3ccccc3)cc2)C1(C)C (stereo not drawn) — IC50 (K562): 222 µM
Cc1ccc(N(C)c2ccc(NC(=O)CN(C)c3ccccc3N3CCCC3=O)nc2)cc1 — CC50 (HepG2; ATP luminescence; 48 h): > 40 µM

Excerpt of the above:
O[C@@H](CNCCCC(F)(F)F)c1cc(Cl)cc2c1-c1ccc(Cl)cc1C2 — CC50 (HepG2; MTT; 72 h): 6.9 µM
O=[N+]([O-])c1cnc2ccc(F)cc2c1O — IC50 (K562): 113 µM
Cc1ccc(N(C)c2ccc(NC(=O)CN(C)c3ccccc3N3CCCC3=O)nc2)cc1 — CC50 (HepG2; ATP luminescence; 48 h): > 40 µM
